Experimental data gathered from unrelated publications.
“And” joins repeats or separate records; there may be more than shown. Numbers after ± are the reported error.

| Compound | test | system | setting | scale | quantity | value |
| --- | --- | --- | --- | --- | --- | --- |
| CC[C@H](C)[C@H](N)C(=O)N[C@H](CC(C)C)C(=O)N[C@@H](CCCNC(=N)N)C(=O)N[C@@H](Cc1c[nH]c2ccccc12)C(=O)N[C@@H](CO)C(=O)N[C@@H](CCCNC(=N)N)C(=O)N[C@@H](CCCCN)C(=O)N[C@@H](CC(C)C)C(=O)N1CCC[C@H]1C(=O)N[C@@H](CS)C(=O)N[C@H](C(=O)N[C@@H](CO)C(N)=O)C(C)C | 12G5 competition, SUP-T1 cells | human plasma | 20 µM, 8 h, 37 °C | – | remaining activity | 57 ± 11% |
| CC(C)C[C@@H]1NC(=O)CNC(=O)[C@H](CC(N)=O)NC(=O)[C@H](CCCNC(=N)N)NC(=O)[C@H]([C@@H](C)O)NC(=O)[C@@H]2CSSC[C@@H]3NC(=O)[C@H]([C@@H](C)O)NC(=O)CNC(=O)CNC(=O)[C@H](C(C)C)NC(=O)[C@@H]4CSSC[C@H](NC(=O)[C@H]([C@@H](C)O)NC(=O)[C@H](CSSC[C@H](NC(=O)[C@H](CCCCN)NC(=O)[C@@H]5CCCN5C1=O)C(=O)NCC(=O)N[C@@H](CCC(=O)O)C(=O)N[C@@H]([C@@H](C)O)C(=O)N4)NC(=O)CNC(=O)[C@@H]1CCCN1C(=O)[C@H]([C@@H](C)O)NC(=O)[C@H](CC(N)=O)NC3=O)C(=O)N[C@@H](CO)C(=O)N[C@@H](Cc1c[nH]c3ccccc13)C(=O)N1CCC[C@H]1C(=O)N[C@@H](C(C)C)C(=O)N2 | HPLC | ammonium bicarbonate 0.1 M | 180 µM, 7 days, pH 9.0, 37 °C, deamidation stability | – | remaining peptide | 53.3 ± 2.3% |
| O=C/C=C/c1ccccc1 | – | FeSSGF | 2 h, pH 4.52, 37 °C | – | remaining concentration | 300 ± 30 µg/mL |
| NNc1ccccc1 | – | PBS | 0 h, 37 °C | relative to: initial amount | remaining fraction | 1 and 0.99 and 0.98 |
| CSCC[C@H](NC(=O)[C@H](CCCCN)NC(=O)[C@H](CCCNC(=N)N)NC(=O)[C@H](CO)NC(=O)[C@H](Cc1c[nH]c2ccccc12)NC(=O)[C@H](CCCNC(=N)N)NC(=O)[C@H](CC(C)C)NC(=O)[C@@H](CO)NC(C)=O)C(=O)N1CCC[C@H]1C(=O)N[C@@H](CS)C(=O)N[C@H](C(=O)N[C@@H](CO)C(N)=O)C(C)C | 12G5 competition, SUP-T1 cells | human plasma | 20 µM, 2 h, 37 °C | – | remaining activity | 65 ± 4% |
| CC[C@@H](C)[C@@H](NC(=O)[C@@H](Cc1ccc(O)cc1)NC(=O)[C@H]1CCCN1C(=O)[C@@H](CCCNC(=N)N)NC(=O)[C@H](N)Cc1c[nH]cn1)C(=O)N[C@H](C)C(=O)N[C@H](Cc1c[nH]cn1)C(=O)N[C@H](CCCNC(=N)N)C(=O)N[C@H](CCCCNC(=O)c1cccc(S(=O)(=O)F)c1)C(=O)N[C@H](Cc1ccc(O)cc1)C(=O)N[C@H](CO)C(=O)N[C@H](Cc1ccccc1)C(N)=O | – | 10% human serum | 12 h | – | remaining compound | 107% and 81.6% |
| CCCCN1CCC(COC(=O)c2ccc(N)c(O[11CH3])c2)CC1 | – | rhesus monkey whole blood | 30 min, added: NaN3 64 mM | – | remaining parent compound | 76.9% |
| CC[C@H](C)[C@H](NC(C)=O)C(=O)N[C@@H](CC(C)C)C(=O)N[C@@H](CCCNC(=N)N)C(=O)N[C@@H](Cc1c[nH]c2ccccc12)C(=O)N[C@@H](CO)C(=O)N[C@@H](CCCNC(=N)N)C(=O)N[C@@H](CCCCN)C(=O)N[C@@H](CC(C)C)C(=O)N1CCC[C@H]1C(=O)N[C@@H](CS)C(=O)N[C@H](C(=O)N[C@@H](CO)C(N)=O)C(C)C | 12G5 competition, SUP-T1 cells | human plasma | concentration not given, 2 h | – | remaining activity | 78 ± 4% |
| CSCC[C@H](NC(=O)[C@H](CCCNC(=N)N)NC(=O)[C@H](CCCNC(=N)N)NC(=O)[C@H](CCCCN)NC(=O)[C@H](C)NC(=O)[C@H](CCCNC(=N)N)NC(=O)CNC(=O)[C@@H](NC(=O)CCNC(=O)c1ccc2c(c1)C(=O)OC21c2ccc(O)cc2Oc2cc(O)ccc21)[C@@H](C)O)C(=O)N[C@@H](CSCB(O)O)C(=O)N[C@@H](Cc1ccc(O)cc1)C(=O)N[C@@H](CSCB(O)O)C(=O)N[C@@H](CCCNC(=N)N)C(=O)N[C@@H](CCCNC(=N)N)C(N)=O | HPLC peak area | 50% human serum | 100 µM, 2 h, pH 7.4, 37 °C | relative to: 0 h | remaining peptide | 80.5% and 79.9% and 77.4% |
| CC(C)[C@@H]1NC(=O)[C@@H]2CSSC[C@@H]3NC(=O)[C@H]([C@@H](C)O)NC(=O)[C@@H]4CSSC[C@H](NC(=O)[C@H](C(C)C)NC(=O)[C@@H]5CCCN5C(=O)[C@H](CCCCN)NC(=O)CNC(=O)[C@H](CC(N)=O)NC(=O)[C@H](CCCNC(=N)N)NC(=O)[C@H]([C@@H](C)O)NC(=O)[C@H](CSSC[C@H](NC(=O)[C@H]([C@@H](C)O)NC(=O)CNC(=O)CNC1=O)C(=O)N[C@@H](CC(N)=O)C(=O)N[C@@H]([C@@H](C)O)C(=O)N1CCC[C@H]1C(=O)NCC(=O)N4)NC(=O)[C@H](C(C)C)NC(=O)[C@@H]1CCCN1C(=O)[C@H](Cc1c[nH]c4ccccc14)NC(=O)[C@H](CO)NC3=O)C(=O)NCC(=O)N[C@@H](CCC(=O)O)C(=O)N[C@@H]([C@@H](C)O)C(=O)N2 | HPLC | ammonium bicarbonate 0.1 M | 180 µM, 14 days, pH 9.0, 37 °C, deamidation stability | – | remaining peptide | 41.4 ± 1.9% |
| CC(C)[C@@H]1NC(=O)CNC(=O)[C@H](CC(N)=O)NC(=O)[C@H](CCCNC(=N)N)NC(=O)[C@H](Cc2ccc(O)cc2)NC(=O)[C@H](C(C)C)NC(=O)[C@@H](NC(=O)[C@@H](NC(=O)[C@H](CC(N)=O)NC(=O)[C@H](Cc2c[nH]c3ccccc23)NC(=O)[C@H](C)NC(=O)[C@H](Cc2ccccc2)NC(=O)CN)C(C)C)CSSC[C@@H](C(=O)N[C@@H](Cc2cnc[nH]2)C(=O)N[C@@H](CCCNC(=N)N)C(=O)N[C@@H](CCCNC(=N)N)C(=O)N[C@@H](C)C(=O)N[C@@H](CC(N)=O)C(N)=O)NC(=O)[C@H](C(C)C)NC(=O)[C@H](CCCNC(=N)N)NC1=O | HPLC | mouse mammary gland homogenate | 2560 µM, 6.00 h, 37 °C, 50 mg/mL tissue | – | remaining peptide | 58.8% and 57.1% and 53.3% |
| CC(C)C[C@@H]1NC(=O)CNC(=O)[C@H](CC(N)=O)NC(=O)[C@H](CCCNC(=N)N)NC(=O)[C@H]([C@@H](C)O)NC(=O)[C@@H]2CSSC[C@@H]3NC(=O)[C@H]([C@@H](C)O)NC(=O)CNC(=O)CNC(=O)[C@H](C(C)C)NC(=O)[C@@H]4CSSC[C@H](NC(=O)[C@H]([C@@H](C)O)NC(=O)[C@H](CSSC[C@H](NC(=O)[C@H](C(C)C)NC(=O)[C@@H]5CCCN5C1=O)C(=O)NCC(=O)N[C@@H](CCC(=O)O)C(=O)N[C@@H](CCCCN)C(=O)N4)NC(=O)CNC(=O)[C@@H]1CCCN1C(=O)[C@H]([C@@H](C)O)NC(=O)[C@H](CC(N)=O)NC3=O)C(=O)N[C@@H](CO)C(=O)N[C@@H](Cc1c[nH]c3ccccc13)C(=O)N1CCC[C@H]1C(=O)N[C@@H](C(C)C)C(=O)N2 | HPLC | water | 180 µM, 14 days, 37 °C, deamidation stability | – | remaining peptide | 99.1 ± 0.7% |
| COc1ccc(C(=O)OCOP(=O)(CC/C=C(\C)COC(C)=O)Oc2ccc(C(C)C)cc2)cc1 (stereo not drawn) | – | 50% Sprague-Dawley rat plasma | 100 µM, 2 h, pH 7.5, 37 °C | – | remaining compound | 0.51% |
| CC[C@@H](C)[C@@H](NC(=O)[C@@H](Cc1ccc(O)cc1)NC(=O)[C@H]1CCCN1C(=O)[C@@H](CCCNC(=N)N)NC(=O)[C@H](N)Cc1c[nH]cn1)C(=O)N[C@H](C)C(=O)N[C@H](Cc1c[nH]cn1)C(=O)N[C@H](CCCNC(=N)N)C(=O)N[C@@H](C(=O)N[C@H](Cc1ccc(O)cc1)C(=O)N[C@H](CO)C(=O)N[C@H](Cc1ccccc1)C(N)=O)C(C)C | – | 10% human serum | 0.5 h | – | remaining compound | 105% and 106% |
| CC(C)C[C@@H]1NC(=O)CNC(=O)[C@H](CC(N)=O)NC(=O)[C@H](CCCNC(=N)N)NC(=O)[C@H]([C@@H](C)O)NC(=O)[C@@H]2CSSC[C@@H]3NC(=O)[C@H]([C@@H](C)O)NC(=O)CNC(=O)CNC(=O)[C@H](C(C)C)NC(=O)[C@@H]4CSSC[C@H](NC(=O)[C@H]([C@@H](C)O)NC(=O)[C@H](CSSC[C@H](NC(=O)[C@H](C(C)C)NC(=O)[C@@H]5CCCN5C1=O)C(=O)NCC(=O)N[C@@H](CCC(=O)O)C(=O)N[C@@H]([C@@H](C)O)C(=O)N4)NC(=O)CNC(=O)[C@@H]1CCCN1C(=O)[C@H]([C@@H](C)O)NC(=O)[C@H](CC(N)=O)NC3=O)C(=O)N[C@@H](CO)C(=O)N[C@@H](CCCCN)C(=O)N1CCC[C@H]1C(=O)N[C@@H](C(C)C)C(=O)N2 | HPLC | ammonium bicarbonate | 180 µM, 7 days, pH 9.0, 25 °C, deamidation stability | – | remaining peptide | 94 ± 0.7% |

Some of these lines once more:
| Compound | test | system | setting | scale | quantity | value |
| --- | --- | --- | --- | --- | --- | --- |
| CC(C)[C@@H]1NC(=O)[C@@H]2CSSC[C@@H]3NC(=O)[C@H]([C@@H](C)O)NC(=O)[C@@H]4CSSC[C@H](NC(=O)[C@H](C(C)C)NC(=O)[C@@H]5CCCN5C(=O)[C@H](CCCCN)NC(=O)CNC(=O)[C@H](CC(N)=O)NC(=O)[C@H](CCCNC(=N)N)NC(=O)[C@H]([C@@H](C)O)NC(=O)[C@H](CSSC[C@H](NC(=O)[C@H]([C@@H](C)O)NC(=O)CNC(=O)CNC1=O)C(=O)N[C@@H](CC(N)=O)C(=O)N[C@@H]([C@@H](C)O)C(=O)N1CCC[C@H]1C(=O)NCC(=O)N4)NC(=O)[C@H](C(C)C)NC(=O)[C@@H]1CCCN1C(=O)[C@H](Cc1c[nH]c4ccccc14)NC(=O)[C@H](CO)NC3=O)C(=O)NCC(=O)N[C@@H](CCC(=O)O)C(=O)N[C@@H]([C@@H](C)O)C(=O)N2 | HPLC | ammonium bicarbonate 0.1 M | 180 µM, 14 days, pH 9.0, 37 °C, deamidation stability | – | remaining peptide | 41.4 ± 1.9% |
| CC(C)[C@@H]1NC(=O)CNC(=O)[C@H](CC(N)=O)NC(=O)[C@H](CCCNC(=N)N)NC(=O)[C@H](Cc2ccc(O)cc2)NC(=O)[C@H](C(C)C)NC(=O)[C@@H](NC(=O)[C@@H](NC(=O)[C@H](CC(N)=O)NC(=O)[C@H](Cc2c[nH]c3ccccc23)NC(=O)[C@H](C)NC(=O)[C@H](Cc2ccccc2)NC(=O)CN)C(C)C)CSSC[C@@H](C(=O)N[C@@H](Cc2cnc[nH]2)C(=O)N[C@@H](CCCNC(=N)N)C(=O)N[C@@H](CCCNC(=N)N)C(=O)N[C@@H](C)C(=O)N[C@@H](CC(N)=O)C(N)=O)NC(=O)[C@H](C(C)C)NC(=O)[C@H](CCCNC(=N)N)NC1=O | HPLC | mouse mammary gland homogenate | 2560 µM, 6.00 h, 37 °C, 50 mg/mL tissue | – | remaining peptide | 58.8% and 57.1% and 53.3% |
